Measured values collected from several papers.
Lines come from different studies, so protocols differ. Several values in a cell are separate wells, animals, samples, runs or records. ± marks the error that the study gave.
Sequence of UniProt Q16678 (whole entry, looked up): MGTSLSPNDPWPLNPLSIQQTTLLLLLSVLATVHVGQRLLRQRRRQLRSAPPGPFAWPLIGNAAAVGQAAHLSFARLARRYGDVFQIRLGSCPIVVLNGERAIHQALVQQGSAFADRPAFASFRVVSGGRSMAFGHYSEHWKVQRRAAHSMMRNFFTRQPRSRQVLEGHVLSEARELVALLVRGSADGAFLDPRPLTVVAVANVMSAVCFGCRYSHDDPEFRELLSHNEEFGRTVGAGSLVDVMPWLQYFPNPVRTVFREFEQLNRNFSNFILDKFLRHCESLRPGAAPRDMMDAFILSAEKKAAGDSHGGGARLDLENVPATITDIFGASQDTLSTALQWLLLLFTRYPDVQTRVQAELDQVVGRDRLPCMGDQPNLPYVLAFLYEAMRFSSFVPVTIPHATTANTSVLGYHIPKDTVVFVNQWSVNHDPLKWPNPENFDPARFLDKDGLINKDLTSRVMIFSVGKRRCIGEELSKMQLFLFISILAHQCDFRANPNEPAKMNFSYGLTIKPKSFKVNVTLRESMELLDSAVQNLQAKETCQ
Sequence of UniProt Q84HF5 (whole entry, looked up): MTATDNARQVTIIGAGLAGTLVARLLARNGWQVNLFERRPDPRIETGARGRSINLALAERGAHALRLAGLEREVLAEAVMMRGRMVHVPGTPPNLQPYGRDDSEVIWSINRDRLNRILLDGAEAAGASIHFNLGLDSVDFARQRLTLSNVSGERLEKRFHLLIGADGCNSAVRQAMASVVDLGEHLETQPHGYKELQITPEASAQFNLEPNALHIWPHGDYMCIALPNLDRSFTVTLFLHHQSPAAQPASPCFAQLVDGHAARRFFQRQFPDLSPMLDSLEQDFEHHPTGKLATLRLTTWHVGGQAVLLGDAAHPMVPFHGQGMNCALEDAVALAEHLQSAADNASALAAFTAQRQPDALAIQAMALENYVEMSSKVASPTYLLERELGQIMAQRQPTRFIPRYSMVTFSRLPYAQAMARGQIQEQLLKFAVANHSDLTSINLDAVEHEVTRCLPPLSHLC
Sequence of UniProt Q97W02 (whole entry, looked up): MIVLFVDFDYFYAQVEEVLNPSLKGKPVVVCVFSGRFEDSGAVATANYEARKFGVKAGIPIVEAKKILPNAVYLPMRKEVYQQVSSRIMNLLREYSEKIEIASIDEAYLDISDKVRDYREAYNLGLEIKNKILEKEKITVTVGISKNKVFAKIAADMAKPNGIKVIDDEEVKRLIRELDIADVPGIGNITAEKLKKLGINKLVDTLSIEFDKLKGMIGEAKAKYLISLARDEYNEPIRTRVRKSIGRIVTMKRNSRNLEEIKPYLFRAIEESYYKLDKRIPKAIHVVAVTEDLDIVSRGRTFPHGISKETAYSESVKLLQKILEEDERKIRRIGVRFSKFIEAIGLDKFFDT
Sequence of UniProt A0A109QYD3 (whole entry, looked up): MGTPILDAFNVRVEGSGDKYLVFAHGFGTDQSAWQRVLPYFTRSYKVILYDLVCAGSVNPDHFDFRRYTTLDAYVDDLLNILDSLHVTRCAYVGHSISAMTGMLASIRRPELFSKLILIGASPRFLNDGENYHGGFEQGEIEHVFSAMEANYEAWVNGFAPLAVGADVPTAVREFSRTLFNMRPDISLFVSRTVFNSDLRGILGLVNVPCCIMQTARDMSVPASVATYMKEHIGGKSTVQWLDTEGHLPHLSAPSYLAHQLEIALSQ
Sequence of UniProt P0A0N4 (whole entry, looked up): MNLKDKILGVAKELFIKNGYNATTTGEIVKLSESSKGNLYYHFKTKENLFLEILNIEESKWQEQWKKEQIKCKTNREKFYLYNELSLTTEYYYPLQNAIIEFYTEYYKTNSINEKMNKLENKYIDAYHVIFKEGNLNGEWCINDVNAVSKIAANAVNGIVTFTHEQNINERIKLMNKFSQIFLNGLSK
Sequence of UniProt P09211 (whole entry, looked up): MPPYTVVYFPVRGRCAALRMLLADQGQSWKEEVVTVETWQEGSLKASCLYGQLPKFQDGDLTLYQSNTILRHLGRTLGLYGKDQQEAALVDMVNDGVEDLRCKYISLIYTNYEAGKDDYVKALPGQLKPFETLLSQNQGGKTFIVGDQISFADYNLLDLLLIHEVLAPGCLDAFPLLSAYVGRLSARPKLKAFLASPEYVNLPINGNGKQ
Sequence of UniProt Q38087 (whole entry, unmodified, looked up): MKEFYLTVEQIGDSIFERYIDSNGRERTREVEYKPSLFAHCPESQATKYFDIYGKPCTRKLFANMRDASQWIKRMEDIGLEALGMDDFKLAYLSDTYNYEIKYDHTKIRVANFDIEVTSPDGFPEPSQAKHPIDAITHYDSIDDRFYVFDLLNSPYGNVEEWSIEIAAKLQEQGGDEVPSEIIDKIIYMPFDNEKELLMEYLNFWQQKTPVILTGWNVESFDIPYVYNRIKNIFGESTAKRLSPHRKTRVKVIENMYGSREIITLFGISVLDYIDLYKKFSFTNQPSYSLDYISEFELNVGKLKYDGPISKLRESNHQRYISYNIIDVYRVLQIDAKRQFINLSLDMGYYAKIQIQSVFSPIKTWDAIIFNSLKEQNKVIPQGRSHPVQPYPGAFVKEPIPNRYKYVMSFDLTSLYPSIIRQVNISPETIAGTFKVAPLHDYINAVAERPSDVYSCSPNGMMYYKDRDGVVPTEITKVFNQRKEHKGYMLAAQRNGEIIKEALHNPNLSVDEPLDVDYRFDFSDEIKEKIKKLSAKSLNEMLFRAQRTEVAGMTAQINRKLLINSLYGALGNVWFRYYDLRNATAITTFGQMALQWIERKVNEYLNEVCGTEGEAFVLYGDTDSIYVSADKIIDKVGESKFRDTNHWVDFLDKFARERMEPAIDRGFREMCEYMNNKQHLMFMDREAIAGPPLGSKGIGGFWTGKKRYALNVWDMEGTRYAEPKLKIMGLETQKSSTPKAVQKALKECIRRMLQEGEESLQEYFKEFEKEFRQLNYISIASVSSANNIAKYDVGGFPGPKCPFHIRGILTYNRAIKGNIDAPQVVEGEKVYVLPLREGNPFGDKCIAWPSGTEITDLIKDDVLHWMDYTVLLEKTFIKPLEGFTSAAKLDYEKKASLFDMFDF

Substance | target or system | test | system | setting | quantity | result
Nc1ccccc1C(=O)CC(N)C(=O)O (centres unmarked) | Kynurenine 3-monooxygenase (Pseudomonas fluorescens, UniProt Q84HF5) | fluorescence polarization displacement |  | pH 7.0, added: 30 nM fluorescent probe | Kd | 180 ± 40 µM
O=C(O[C@@H]1Cc2c(O)cc(O)cc2O[C@@H]1c1cc(O)c(O)c(O)c1)c1cc(O)c(O)c(O)c1 | Beta-2-microglobulin, Cu(II)-bound (B2M, Homo sapiens, UniProt P61769) | binding to Cu(II)-β2m, covalent labelling MS (DEPC, Lys6) |  | added: Cu(II) 60 µM | Kd | 3 ± 2 µM
Cc1cn([C@H]2C[C@H](O)[C@@H](COP(=O)(O)OP(=O)(O)OP(=O)(O)O)O2)c(=O)[nH]c1=O | DNA polymerase IV, with DNA (dbh, Saccharolobus solfataricus, UniProt Q97W02) | dNTP incorporation, substrate, single-turnover kinetics |  | 37 °C, insertion opposite lesion, added: DNA with dG-C8-N-ABA lesion, Dpo4 120 nM | Kd | 970 ± 390 µM
CN[C@@](C)(C[18F])C(=O)O | A549 tumour model |  | host not given, muscle | 1 h, tumour-bearing | tracer uptake | 1 %ID/g
CC(C)[C@@H]1NC(=O)[C@@H]2CCCN2C(=O)[C@H](Cc2c[nH]cn2)NC(=O)[C@@H](N)CSSC[C@@H](C(=O)NCC(=O)NCC(=O)NCC(=O)NCC(=O)N[C@@H](CO)C(=O)N2CCC[C@H]2C(=O)N[C@@H](C)C(=O)N2CCC[C@H]2C(=O)N[C@@H](C)C(=O)N[C@@H](CCCCN)C(=O)O)NC(=O)[C@H](CCC(N)=O)NC(=O)[C@H](CCCCN)NC(=O)[C@H](Cc2ccc(O)cc2)NC(=O)[C@H](CCCNC(=N)N)NC(=O)[C@H](CCCNC(=N)N)NC(=O)[C@@H]2CCCN2C(=O)CNC(=O)[C@H](Cc2ccccc2)NC1=O | sapA (Haemophilus influenzae, UniProt Q4QL73) | binding, SPR |  | 25 °C, added: immobilised oxidised defensin loop peptide | Kd | 0.0095 µM
CC(=O)N[C@@H](CC(C)C)C(=O)N[C@@H](CCCCN)C(=O)N[C@@H](CCCCN)C(=O)N[C@@H](Cc1c[nH]c2ccccc12)C(=O)N[C@@H](CC(C)C)C(=O)N[C@@H](CCCCN)C(=O)N[C@@H](CC(C)C)C(=O)N[C@@H](CC(C)C)C(=O)N[C@@H](CCCCN)C(=O)N[C@@H](CCCCN)C(=O)N[C@@H](CC(C)C)C(=O)N[C@@H](CC(C)C)C(=O)N[C@@H](CCCCN)C(=O)N[C@@H](CC(C)C)C(=O)N[C@@H](C)C(=O)NCC(N)=O | HCV IRES domain IV hairpin | competitive fluorescence anisotropy |  | pH 7.4, 20 °C, added: rhodamine-Rev peptide | Kd | 0.0033 ± 0.0003 µM
[C-]#[O+] | ferrous H-NOX (Nostoc sp.) | stopped-flow absorbance |  | 24 °C | Kd | < 25 µM
CN(C)c1ccc(C(=C2C=CC(=[N+](C)C)C=C2)c2ccccc2)cc1 | HTH-type transcriptional regulator QacR (qacR, Staphylococcus aureus, UniProt P0A0N4) | binding, tryptophan fluorescence quenching |  | pH 7.5 | Kd | 1.23 ± 0.14 µM
Nc1ncnc2c1ncn2[C@H]1C[C@H](O)[C@@H](COP(=O)(O)OP(=O)(O)OP(=O)(O)O)O1 | DNA-directed DNA polymerase (43, Escherichia phage RB69, UniProt Q38087, D222A/D327A) | pre-steady-state kinetics |  | dNTP incorporation opposite tC° | Kd | 1700 ± 190 µM
CC1=C(/C=C/C(C)=C/C=C/C(C)=C/C=C/C=C(C)/C=C/C=C(C)/C=C/C2=C(C)C(=O)[C@@H](O)CC2(C)C)C(C)(C)C[C@H](O)C1=O | GSTP1 (Homo sapiens, UniProt P09211) | binding, SPR |  |  | Kd | 1.26 µM
C#Cc1cc2ccc3cccc4ccc(c1)c2c34 | Cytochrome P450 1B1 (CYP1B1, Homo sapiens, UniProt Q16678) | binding, fluorescence |  | pH 7.4 | Kd | 2.1 µM and < 2.5 µM
Ristocetin | Lys-D-Ala-D-Ala peptide MBP fusion | binding, SPR |  | 25 °C | Kd | 1.7 ± 0.3 µM
O=C1OC2c3ccccc3CC2/C1=C\O (racemic) | RMS3 (Lathyrus oleraceus, UniProt A0A109QYD3) | binding, tryptophan fluorescence |  |  | Kd | 271 µM
Nc1ncnc2c1ncn2[C@@H]1O[C@H](COP(=O)(O)OP(=O)(O)OP(=O)(O)O)[C@@H](O)[C@H]1O | EGFR (Homo sapiens, UniProt P00533) |  |  |  | Kd | 18 µM
